Experimental data from different studies.
Every numbered part comes from another study and shows a few of its results, in no order. Positions count from the first letter of the parent shown.

Block 1
Target: CCNB2, cyclin fold, Cln2 fusion (human)
Technique: yeast growth competition, sequencing
Medium: yeast
Setting: weak parent motif
Relative to: not given
Reading: higher = stronger binding
Quantity: normalised enrichment score
Parent: E2F1 docking peptide (human); PPVKRRLDLETDH; partner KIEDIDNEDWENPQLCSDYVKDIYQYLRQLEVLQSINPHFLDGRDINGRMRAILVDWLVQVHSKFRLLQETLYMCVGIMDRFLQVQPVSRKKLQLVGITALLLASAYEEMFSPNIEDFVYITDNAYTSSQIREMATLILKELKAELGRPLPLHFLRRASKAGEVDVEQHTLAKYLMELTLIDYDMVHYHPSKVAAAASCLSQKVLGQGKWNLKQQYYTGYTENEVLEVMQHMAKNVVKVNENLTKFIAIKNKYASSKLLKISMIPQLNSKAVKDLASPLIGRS
K4L: -0.211
P1Q: 0.401
P1C: 0.361
T11H: 0.269
K4C: 0.235
P1T: 0.219
H13T: 0.445
R5Q: -0.139
L9F: 3.6
T11W: 1.48
K4M: 0.478
D8W: 0.613
L7W: 0.246

Block 2
Target: Prothrombin, mature alpha-thrombin (F2, Homo sapiens, UniProt P00734)
Technique: aptamer microarray, sandwich
Molecule type: DNA with 2'F-ANA
Medium: in vitro
Concentration: 200 nM
Setting: whole 15-mer aptamer, many near background
Added: Cy3 exosite-II aptamer, 400 nM
Reading: higher = stronger binding
Quantity: mean fluorescence intensity
Oligonucleotide: GGTTGGTGTGGTTGG
2'F-ANA at 1 2 3 4 6 7 8 11 13 14: 83.4 a.u.
2'F-ANA at 3 6 10 11: 475 a.u.
2'F-ANA at 3 6 7 8 9 11 12 13 14: 564 a.u.
2'F-ANA at 2 3 4 5 7 9 10 13 14 15: 53.4 a.u.
2'F-ANA at 2 5 6 10 11 12 13 14: 55.3 a.u.
2'F-ANA at 4 9 11 15: 249 a.u.
2'F-ANA at 1 2 3 5 6 7 8 9 12 15: 145 a.u.
2'F-ANA at 1 2 4 5 6 8 12: 110 a.u.
2'F-ANA at 1 5 8 9 13 14: 43.9 a.u.
2'F-ANA at 1 3 5 6 13 14 15: 49.3 a.u.
2'F-ANA at 2 3 5 6 10 11 13 15: 53.1 a.u.
2'F-ANA at 1 2 3 4 11 12 14: 70.5 a.u.
2'F-ANA at 1 2 4 7 8 9 14 15: 54.8 a.u.
2'F-ANA at 3 6 8 9 11 13: 888 a.u.
2'F-ANA at 1 2 3 5 6 12 13 14 15: 49.3 a.u.
2'F-ANA at 1 3 4 7 8 9 13 15: 157 a.u.
2'F-ANA at 3 5 6 12 14 15: 76.1 a.u.
2'F-ANA at 1 2 3 4 5 7 9 13: 50.9 a.u.
2'F-ANA at 1 3 6 7 8 9 10 12 14 15: 66 a.u.

Block 3
Target: RING finger protein unkempt homolog, zinc fingers 1-6, GST-SBP tag (UNK, Homo sapiens, UniProt Q9C0B0, residues 30-357)
Chain of UniProt Q9C0B0 (30-357, looked up): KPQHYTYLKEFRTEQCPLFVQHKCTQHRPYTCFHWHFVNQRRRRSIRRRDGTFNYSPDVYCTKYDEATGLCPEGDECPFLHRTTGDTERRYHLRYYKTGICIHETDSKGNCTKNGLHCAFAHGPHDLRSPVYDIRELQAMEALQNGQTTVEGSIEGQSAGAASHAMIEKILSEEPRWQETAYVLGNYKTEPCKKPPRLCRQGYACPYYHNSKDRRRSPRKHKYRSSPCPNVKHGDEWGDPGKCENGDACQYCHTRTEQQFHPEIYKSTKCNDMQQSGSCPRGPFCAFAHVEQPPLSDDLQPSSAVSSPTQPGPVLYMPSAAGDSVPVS
Technique: RNA Bind-n-Seq
Molecule type: RNA
Medium: in vitro
Concentration: not given
Setting: RNA with constant flanks, human-mouse chimeric sites, ends assumed
Relative to: input RNA pool
Reading: higher = stronger binding
Quantity: bound/input enrichment
Shared flanks, not repeated: GGGAGUUCUACAGUCCGACGAUC … CAACAGAGGAUUGAGCAUCA
GUAAUGUUUAUUCAUUUAACUUAUUUUUAUAGCUAGAUAAAUAUUGUUAGUCUUAGACAAUAGCUCACAUCUUUACAGAAGCAUGCCCUCCCUGUCCAUUUGUCUUAUAACAUGACCCAG: 6.18 ratio
AUAGAUGAAAUUGAUGUGGACCAGGAAGGAAUUGCAGAAAUGAUCCUGGAUGAAAAUGCUAUAGCUCAGGUCCCACGCCCUGGCACAUCUUUGAAGCUCCCUGGCACUAACCAAACAGGA: 0.297 ratio
CUGAGGAUACCACUGAAGAGACCUUAAAAGAAUCAUUUGAGGGCUCUGUUCGUGCAAAGGAUAGUUAUGAUCGGGAAAACUGGGUCCCCAAAGGGUUUGGUUUUGUAGACUUUAAUAGUG: 0.751 ratio
GCAGGAUCUUCUAAGUACCAGUGGGACAUUAUGAAAUCCCUUGGGCUGUCUGAUGAAGACAUAGUGAAAUUUUCUGAAGCAGAGCACUGGCUUGAUUAUUUCCCACCACUGGCCGUUCAG: 0.361 ratio
UCCCAAAUCCAGCAGCUAGAAGGAGCCAAUUGUUUGUCACUCCACACACAGGGAAGGCAAUAGCUUUGUACAUUGGUUUACAUUUUUUCCCCCUGUGGAUUUUUCUAGAGGUCAUAGUGC: 0.636 ratio
UCUUUAAAAAAAAAAUUACCUUUUCUGACAGUGCUUUCCCUCCCAUAGAUCCACGUUCAAGCUCAAAGGCCAAAACUUUUGCACGGAGCUCAAACAUCUGAUGAAGAUUUUUGAGACAGA: 1.59 ratio
AAAGAGAAACUAAAGCAACUAAUAGAGAAGAGGAUUGGCAAAGAGAAAUUUCAUAGAAAACUAGGAUUUAUUAGCAAACAUGAGUUAUAUUCCAGAGGCAUCUCAGAACCCCAGCCAAAC: 11.5 ratio
AAAGUGGACUAUGGCGAAUACAUGGAUAAAAACAAUGUGAGGCGGCAAGCAACAACAAUCAUAGCUGAUAAUAUUAUAUUUCUGAGUGACCAGACAAAAGAAAAGGCAUAGAACGGAUGA: 5.39 ratio
ACCAUUUUCGCGGUUCAAGGUUUUGUGGUAGUUCACUUACGGUAUUAAAUUAUUAUUCUGCUUAGCUUAUAAUAAGGAUAAUUGCAUUUAAAGAGGUUACUGAAUGUUGUUAUUGUUCUU: 2.72 ratio
UCUUUAAAAAAAAAAUUACCUUUUCUGACAGUGCUUUCCCUCCCAUAGAUCCACGUUCAAGCUCAAAGAGCAAAGGCUUUGCACGGAUCUGAUGAUGAAAAGAAAGAAAGAUUUCUGAGA: 0.276 ratio
CUUCGGAAAAAAAAAUUACCUUUUCUGACAGUGCUUUCCCUCCCAUAGAUCCACGUUCAAGCUCAAAGGCCAAAACUUUUGCACGGAGCUCAAACAUCUGAUGAAGAAAGAUUUCUGAGA: 0.627 ratio

Other studies, line by line
PhoQ, residues 284 288 289 292 302 303 SVHLDV  fold induction (PhoP, residues 12 14 15 18 19 VHTVL (Escherichia coli, UniProt P23836); Sort-seq, refers to: YFP reporter; E. coli; PhoQ-PhoP variant library, added: 10 µM Mg2+; relative to: high Mg2+ state, higher = stronger signaling): 10.9

Excerpt of the above (block 3):
CUUCGGAAAAAAAAAUUACCUUUUCUGACAGUGCUUUCCCUCCCAUAGAUCCACGUUCAAGCUCAAAGGCCAAAACUUUUGCACGGAGCUCAAACAUCUGAUGAAGAAAGAUUUCUGAGA: 0.627 ratio
GCAGGAUCUUCUAAGUACCAGUGGGACAUUAUGAAAUCCCUUGGGCUGUCUGAUGAAGACAUAGUGAAAUUUUCUGAAGCAGAGCACUGGCUUGAUUAUUUCCCACCACUGGCCGUUCAG: 0.361 ratio
AUAGAUGAAAUUGAUGUGGACCAGGAAGGAAUUGCAGAAAUGAUCCUGGAUGAAAAUGCUAUAGCUCAGGUCCCACGCCCUGGCACAUCUUUGAAGCUCCCUGGCACUAACCAAACAGGA: 0.297 ratio
UCUUUAAAAAAAAAAUUACCUUUUCUGACAGUGCUUUCCCUCCCAUAGAUCCACGUUCAAGCUCAAAGAGCAAAGGCUUUGCACGGAUCUGAUGAUGAAAAGAAAGAAAGAUUUCUGAGA: 0.276 ratio
ACCAUUUUCGCGGUUCAAGGUUUUGUGGUAGUUCACUUACGGUAUUAAAUUAUUAUUCUGCUUAGCUUAUAAUAAGGAUAAUUGCAUUUAAAGAGGUUACUGAAUGUUGUUAUUGUUCUU: 2.72 ratio
UCUUUAAAAAAAAAAUUACCUUUUCUGACAGUGCUUUCCCUCCCAUAGAUCCACGUUCAAGCUCAAAGGCCAAAACUUUUGCACGGAGCUCAAACAUCUGAUGAAGAUUUUUGAGACAGA: 1.59 ratio
CUGAGGAUACCACUGAAGAGACCUUAAAAGAAUCAUUUGAGGGCUCUGUUCGUGCAAAGGAUAGUUAUGAUCGGGAAAACUGGGUCCCCAAAGGGUUUGGUUUUGUAGACUUUAAUAGUG: 0.751 ratio
